Results pooled from the literature.
Every numbered part comes from another study and shows a few of its results, in no order.

Block 1
Target: Replicase polyprotein 1ab, main protease (rep, Severe acute respiratory syndrome coronavirus 2, UniProt P0DTD1)
Observed: enzyme activity
Action: inhibitor
Concentration: 20 µM
Structure (SMILES)	inhibition [%]
C=CCN1CCc2cc(O)c(O)cc2C(c2ccccc2)C1 (centres unmarked)	3.95
COC(=O)/C=C/c1cc(O)ccc1O	-54.6
COc1nc2ccc(Br)cc2cc1[C@@H](c1ccccc1)[C@@](O)(CCN(C)C)c1cccc2ccccc12	-19.8
Sc1nnc(-c2ccccc2Cl)o1	82.2

Block 2
Target: Replicase polyprotein 1ab, polymerase (rep, Severe acute respiratory syndrome coronavirus 2, UniProt P0DTD1)
Observed: enzyme activity
Action: inhibitor
Concentration: 20 µM
SMILES	inhibition [%]
Clc1cc(Cl)c(OCC#CI)cc1Cl	1.32
CCCCN1CCC(CCC(=O)c2cc(Cl)c(N)cc2OC)CC1	1.43
Cc1nc2c(OCc3ccccc3)cccn2c1CC#N	-2.75
Nc1c(CC(=O)O)cccc1C(=O)c1ccc(Br)cc1	-7.09
O=C(O)[C@H]1O[C@@H](Oc2cc3oc(-c4ccccc4)cc(=O)c3c(O)c2O)[C@H](O)[C@@H](O)[C@@H]1O	25.6
O=C(Oc1ccc([N+](=O)[O-])cc1)N1CCN(Cc2cccc(Oc3ccccc3)c2)CC1	10.6
CC(=O)OCC1=C(C(=O)O)N2C(=O)[C@@H](NC(=O)CSc3ccncc3)[C@H]2SC1	14.3
CCCOc1ccc(S(=O)(=O)N2CCN(CCO)CC2)cc1-c1nc2c(CCC)cn(CC)c2c(=O)[nH]1	-8.93
CC[C@H]1CN2CCc3cc(OC)c(OC)cc3[C@@H]2C[C@@H]1C[C@H]1NCCc2cc(OC)c(OC)cc21	-2.43
CNC(=O)ON(C(C)=O)C(=O)NC	0.32
CC(C)(C(=O)O)c1ccc(C(=O)CCCN2CCC(OC(c3ccccc3)c3ccccc3)CC2)cc1	0.15
Cc1nc(Nc2cnn(C3CCNCC3)c2)nc2c1N(C)C(=O)c1cc3ccccc3cc1N2C	17.3
Cc1cc(CCCOc2c(C)cc(-c3noc(C(F)(F)F)n3)cc2C)on1	3.04
C[N+](C)(C)CCOC(=O)CCC(=O)OCC[N+](C)(C)C	3.39
N#CCCCSC(=N)N	-2.56
O=C(O)CCC(=O)C(=O)O	4.08
CCOC(=O)c1ncc2[nH]c3ccc(OCc4ccccc4)cc3c2c1COC	0.33
C[N+]1(CCCCC[N+]2(C)CCCC2)CCCC1	-1.78
CC[C@H]1[C@@H](O)[C@@H]2[C@H](CC[C@]3(C)[C@@H]([C@H](C)CCC(=O)O)CC[C@@H]23)[C@@]2(C)CC[C@@H](O)C[C@@H]12	6.06
CCNC(=O)CCC/C=C\C[C@@H]1[C@@H](/C=C/[C@@H](O)CCc2ccccc2)[C@H](O)C[C@@H]1O	-2.67
CC(C)(Cc1c[nH]c2ccc(Cl)cc12)NCCOc1ccccc1OCC1CC1	1.1
O=C(NC1CCN(CCCCC2(C(=O)NCC(F)(F)F)c3ccccc3-c3ccccc32)CC1)c1ccccc1-c1ccc(C(F)(F)F)cc1	-0.91
CC(=O)N1CCN(c2ccc(OC[C@@H]3CO[C@@](Cn4ccnc4)(c4ccc(Cl)cc4Cl)O3)cc2)CC1 (racemic)	26.5
Nc1nc(=O)c2c([nH]1)NC[C@H](CNc1ccc(C(=O)N[C@@H](CCC(=O)O)C(=O)O)cc1)N2C=O	-2.44
CC(CCc1ccc(O)cc1)NCC(O)c1ccc(O)cc1 (centres unmarked)	-3.11

Block 3
Target: Sal-like protein 4, full length isoform A (SALL4, Homo sapiens, UniProt Q9UJQ4, residues 1-1053)
UniProt Q9UJQ4, sequence (whole entry, looked up): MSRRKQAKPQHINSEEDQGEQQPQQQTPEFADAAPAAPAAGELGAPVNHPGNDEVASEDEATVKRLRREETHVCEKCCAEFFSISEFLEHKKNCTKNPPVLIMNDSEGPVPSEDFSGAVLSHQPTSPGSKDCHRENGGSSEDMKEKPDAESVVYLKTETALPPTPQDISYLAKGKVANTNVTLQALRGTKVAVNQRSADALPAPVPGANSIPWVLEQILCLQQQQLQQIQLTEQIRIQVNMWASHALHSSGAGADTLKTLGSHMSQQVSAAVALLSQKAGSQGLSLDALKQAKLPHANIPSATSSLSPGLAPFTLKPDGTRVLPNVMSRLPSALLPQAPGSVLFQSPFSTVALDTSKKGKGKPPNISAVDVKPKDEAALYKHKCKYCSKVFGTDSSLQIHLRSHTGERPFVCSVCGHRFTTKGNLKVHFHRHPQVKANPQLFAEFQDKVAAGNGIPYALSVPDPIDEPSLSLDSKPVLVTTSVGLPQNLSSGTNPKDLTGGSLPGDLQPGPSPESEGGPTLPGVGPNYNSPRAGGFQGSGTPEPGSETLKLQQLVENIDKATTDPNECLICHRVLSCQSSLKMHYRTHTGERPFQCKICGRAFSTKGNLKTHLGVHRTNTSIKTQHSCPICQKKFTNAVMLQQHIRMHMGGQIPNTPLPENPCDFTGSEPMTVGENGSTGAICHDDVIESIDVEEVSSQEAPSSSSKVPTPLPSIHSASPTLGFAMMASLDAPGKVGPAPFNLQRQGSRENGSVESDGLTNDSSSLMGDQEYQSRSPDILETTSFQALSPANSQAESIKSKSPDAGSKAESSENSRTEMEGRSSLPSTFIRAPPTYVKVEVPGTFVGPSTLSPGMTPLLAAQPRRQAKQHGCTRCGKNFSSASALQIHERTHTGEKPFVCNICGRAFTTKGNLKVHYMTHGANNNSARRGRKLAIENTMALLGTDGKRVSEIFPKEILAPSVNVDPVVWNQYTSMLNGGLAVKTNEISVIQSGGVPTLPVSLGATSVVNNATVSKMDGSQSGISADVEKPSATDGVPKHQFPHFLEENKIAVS
Technique: universal PBM
Form: double-stranded DNA, one strand shown
Sample: in vitro
Concentration: 600 nM
Notes: 8-mer, flanks averaged, mean of replicates
Direction: higher = stronger binding
Oligonucleotide	E-score
ATTTAAAC	0.254
ATCTCTTC	0.127
AGTTTTGA	0.142
TAGGTGGA	0.152
AATCGGGA	-0.048
CGGCCCCA	-0.362
CACGTCTA	0.00519
GTACGAAC	0.163

Block 4
Cell line: HEK-293T/ACE2
Observed: pseudovirus infection
Organism: VSV pseudotyped with SARS-CoV-2 spike
Concentration: concentration not given
Reference: vehicle-treated
Structure (SMILES)	GFP-positive cells
O=C(/C=C/c1cccc(S(=O)(=O)Nc2ccccc2)c1)NO	49.2%
Cc1cc(Nc2ncc(Cl)c(Nc3ccccc3S(=O)(=O)C(C)C)n2)c(OC(C)C)cc1C1CCNCC1	70.1%
Cc1nccn1CC1CCc2c(c3ccccc3n2C)C1=O.Cl (centres unmarked)	102%
C[C@H]1O[C@]2(CS1)CN1CCC2CC1.C[C@H]1O[C@]2(CS1)CN1CCC2CC1.Cl.Cl.O	80.1%
CCCCCOc1ccc(-c2cc(-c3ccc(C(=O)N[C@H]4C[C@@H](O)[C@@H](O)NC(=O)[C@@H]5[C@@H](O)[C@@H](C)CN5C(=O)[C@H]([C@H](O)CC(N)=O)NC(=O)[C@H]([C@H](O)[C@@H](O)c5ccc(O)c(OS(=O)(=O)[O-])c5)NC(=O)[C@@H]5C[C@@H](O)CN5C(=O)[C@H]([C@@H](C)O)NC4=O)cc3)no2)cc1.[Na+]	91.8%

Block 5
Target: RNA binding protein fox-1 homolog 2, RRM domain, GST-SBP tag (RBFOX2, Homo sapiens, UniProt O43251-10, residues 100-194)
Technique: RNA Bind-n-Seq
Form: RNA
Sample: in vitro
Concentration: 365 nM
Notes: natural RNA segment, single round, ends assumed
Reference: no-protein control
Direction: higher = stronger binding
Shared flanks, not repeated: GGGAGUUCUACAGUCCGACGAUC … UGGAAUUCUCGGGUGCCAA
Residues (chain): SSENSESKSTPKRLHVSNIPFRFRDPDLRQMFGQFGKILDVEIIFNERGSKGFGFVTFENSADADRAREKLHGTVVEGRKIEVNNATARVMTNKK
Oligonucleotide	RBNS enrichment (R)
GGAAGGCAGGCCUGAGCCAUUCACCACGGACAGGAAGAGCAGCUCUGGCUAUCACCACUGGCCUCUGGGGUCUUCAUAUCUUGCCAUCUCAUCCAGGGUUCCAUGAAAGU	0.373
UUUUUUUUUAACUGUAGGGAAGCAGCCCUGACCUUACCUCUCCACUCCUGUCCCGGGAGCUCUCAAUGCUAUCCUGGAUUGCCUCGUACCAGUCAGAGGUCAGGACUCCA	0.576
AUAUUCGGGGGAGUAAGGAAAUAAGUUAUGUUUAAUAAUAGCUUAAGAUGACCAGCAAUGCCUGUAGAAGGCUUUGUCCGUUUUUGGCAGAAGGCCUAGGGCAUCGAAAA	0.519
GCCCGCAUCGUGCAGACAACCUCAGUCCUCUUGUCUAUUUUCUCUUGGGUUGAGCCUGUGACUUGGUUUCUCUUUGUCCUUUUGGAAAAAUGACAAGCAUUGCAUCCCAG	1.18
AUGGCCUAGUACCUGAUGGAGCCUGUAUAGCUCAGCUAAUCAAAUGGAGGCUCAGGUCCAUCAGAAUCAGGGACUUGUGAUUUCAGUCACCUUGCUUCUGGGUUGUGUUU	0.317
UGGCACAGUGCUCACGCCGCCUUUAUUUAUUGGACCAGAAACACUCACAUGUCACUUCCAGAGGAACGGGGGACAGCCAGGCUCGCCCAUGGGCCUUCAGGAAUAUUUAU	0.399
CAGAGCUGGUCUUUGGGCUGUGUUCCUUGCCCAGGUUUCUGCAUCUUGCACUUUGACAUUCCCAGGAGGGAAGUGACUAGUGGAAGGGAGAGAGGAAGGGGAGGCAGAGA	0.613
AGGUAACUUUUCCUAGGUUUCACUCUUUUUAGUGUACUAGAUCCAGAAACUUAGUGUAAUGCCCUGCUUUAUAUUUCUUUGACUUAACAUUGGUUUCAGAAAGAAUCUUA	0.312

Repeated from above (block 1):
Structure (SMILES)	inhibition [%]
C=CCN1CCc2cc(O)c(O)cc2C(c2ccccc2)C1 (centres unmarked)	3.95
COC(=O)/C=C/c1cc(O)ccc1O	-54.6
COc1nc2ccc(Br)cc2cc1[C@@H](c1ccccc1)[C@@](O)(CCN(C)C)c1cccc2ccccc12	-19.8
Sc1nnc(-c2ccccc2Cl)o1	82.2
